Results of several laboratories.
Each numbered part is a random draw from the data of one study; scales do not carry over between parts.

Sample 1 — method: protein-binding microarray; molecule type: double-stranded DNA, one strand shown; sample: in vitro; tested at: 250 nM; setting: 60-bp whole probe; with: salmon DNA 0.4 mg/ml; relative to: random background probes; reading: higher = stronger binding; constant ends, left off below: GCCTAGCAC … GTCTTGATTCGCTTGACGCTGCTG
Target: Interferon regulatory factor 7, full length, phosphomimetic (IRF7, Homo sapiens, UniProt Q92985, residues 1-503, S101K/S471D/S472D/S475D/S476D/S477D/S483D/S484D/S487D)
UniProt Q92985, sequence (whole entry, unmodified, looked up): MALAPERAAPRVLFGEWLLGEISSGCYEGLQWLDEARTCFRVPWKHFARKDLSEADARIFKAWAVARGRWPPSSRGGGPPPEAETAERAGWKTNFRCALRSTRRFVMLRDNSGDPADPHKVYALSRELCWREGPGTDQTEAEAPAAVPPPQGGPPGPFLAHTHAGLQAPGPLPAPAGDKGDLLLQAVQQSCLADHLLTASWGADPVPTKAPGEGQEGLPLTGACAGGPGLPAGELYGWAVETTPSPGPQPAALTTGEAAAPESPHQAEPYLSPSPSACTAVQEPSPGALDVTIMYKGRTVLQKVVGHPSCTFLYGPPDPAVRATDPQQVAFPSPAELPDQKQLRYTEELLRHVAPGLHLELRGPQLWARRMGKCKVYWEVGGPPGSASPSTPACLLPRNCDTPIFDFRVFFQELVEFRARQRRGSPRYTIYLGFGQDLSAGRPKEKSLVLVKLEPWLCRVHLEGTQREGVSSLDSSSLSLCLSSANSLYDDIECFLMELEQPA
`TGGGTAATGCTTCTGTATTCGTGCTAG` gave a log fluorescence of -0.126 z-score.
`ATAGATCTCAGTATCGATTAGTGCTAG` gave a log fluorescence of 0.953 z-score.
The log fluorescence of `TTAGATTCCAGTTTCGAGTAGTGCTAG` is reported as 6.82 z-score.
`TTAGGACTGGACTTTCAGTTAGTGCTA` has a log fluorescence of -0.685 z-score.
`TTAGATATCCGTTTCGATTAGTGCTAG` gave a log fluorescence of 3.55 z-score.
The log fluorescence of `GACTGTTTCGACACTGGGGACGTGCTA` is reported as 1.69 z-score.
The log fluorescence of `GACGGTATGCTTCTCCTGACGTGCTAG` is reported as -0.602 z-score.
For `CCCTGGCTCCCTATAAAAGGGTGCTAG`, the log fluorescence was -0.512 z-score.
`GACGATTTCAGTCTCGATACGTGCTAG` gave a log fluorescence of 1.11 z-score.
`GACGGACTGGGGTATCAGGACGTGCTA` has a log fluorescence of -0.665 z-score.
With `TTAGGACTGGACTTTCGCTTAGTGCTA` the log fluorescence was -0.185 z-score.
`GACGAACTGGACTTTCGGGACGTGCTA` gave a log fluorescence of -0.167 z-score.
`TTAGGACTGTGGTTTCGGTTAGTGCTA` gave a log fluorescence of 7.57 z-score.
`TCATGTCTCTGTCCCTGACTGTGCTAG` has a log fluorescence of 0.186 z-score.
The log fluorescence of `GTAGGTTTCGACTTTCGGTTAGTGCTA` is reported as 10.9 z-score.
For `TTAGATTTCGGGGATCGATTAGTGCTA`, the log fluorescence was 0.454 z-score.
For `GACGATATCGGGTATCGAAACGTGCTA`, the log fluorescence was 0.375 z-score.
`TTAGGTATCGTTCTCCTTTAGTGCTAG` gave a log fluorescence of 2.26 z-score.
The log fluorescence of `TTAGATTTCGGGAATGGATTAGTGCTA` is reported as 0.619 z-score.

Sample 2 — method: RNA Bind-n-Seq; molecule type: RNA; sample: in vitro; tested at: 365 nM; relative to: no-protein control; reading: higher = stronger binding
Target: RNA binding protein fox-1 homolog 2, RRM domain, GST-SBP tag (RBFOX2, Homo sapiens, UniProt O43251-10, residues 100-194)
Setting: natural RNA segment, single round, ends assumed
Residues (chain): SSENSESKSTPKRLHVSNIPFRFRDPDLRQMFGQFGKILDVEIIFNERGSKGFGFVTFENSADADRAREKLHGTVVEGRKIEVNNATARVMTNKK
`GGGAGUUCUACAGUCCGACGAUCGGGCUCAUUUUGGUUUUAUUGAAAUGCCAUCUAAAUAUGUUAGCUGUAGAUAGGAGGUGCUUCUGGUGAACUGAAAGUGUCUGACUCGUGAGGAACAUGGUAGGUUCCUCUGGAAUUCUCGGGUGCCAA` — result for “RBNS enrichment (R)”: 0.266.
Under “RBNS enrichment (R)”, `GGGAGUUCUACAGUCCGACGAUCAGAAUCAACAUCCCUAGAAAGAUCCCUAGAAAGAGCAAAGAAGGAAACACAUCUGUCAUUGUCUUGUGGACGUGGAAAGGAAGCUACUGUCCUCACACUCCUGGAUCACUUGGAAUUCUCGGGUGCCAA` is recorded as 0.313.
`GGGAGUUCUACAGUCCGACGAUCACUAAUGGGCAGGUAAAGUCACAACUGUGGUUAUUUUGGUUUUGUUUUGGUUUUUGGUUUUUUUAUCCUUUUACUCCAAUACUCCCCCUGUCACUUUGCCUGGAGGUGCUUGGAAUUCUCGGGUGCCAA` — result for “RBNS enrichment (R)”: 0.778.
`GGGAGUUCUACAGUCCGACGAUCUUUGCAUUAGUACUGAAAUCUGUACCCUACAGACCUUAUAAUAAUUUGCAAAGUGACUCUGACUAACGCGGUUAAGAACAUCUGAACUUGGUUUCCCAAAUGACUCAGUUUGGAAUUCUCGGGUGCCAA` — result for “RBNS enrichment (R)”: 0.24.
`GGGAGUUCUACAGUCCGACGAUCUAAAGAAAUAGUUUUCUUAGAUAUUUGUCACAUACUACUUAAAUAAAAUUCUCUUGGGUUUAAUCUUUCUUGAGCCUUUCUCAGAAGUUUGGGCUUAAAUAUGCUCCAAAUGGAAUUCUCGGGUGCCAA` — result for “RBNS enrichment (R)”: 0.648.
For `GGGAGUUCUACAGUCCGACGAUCUGCAAGAUUUUGCGUUUAUUCAGGCAAAAACUGGUCAAAAUGGUUACUACAUGAUUUGUUCCCAGAGGUUUGAAACAUUCAGUGAAACUUUUUAAAACUUUGAUUGCAUGUGGAAUUCUCGGGUGCCAA`, “RBNS enrichment (R)” read 0.888.
`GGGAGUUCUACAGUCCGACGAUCACACACACACACACACACAUAUUUGUAACAUAUUGUGACCAAAUGGGCCUCAAAGAUUCAAAGAUUAAAAACAAAAAGCUUUUGAUGGAAAAGAUGUGGGUGGAUAGUAUUGGAAUUCUCGGGUGCCAA` — result for “RBNS enrichment (R)”: 0.73.
Under “RBNS enrichment (R)”, `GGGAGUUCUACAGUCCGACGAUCUUGUAAACAUUAUUGCCUGAGAUAUUUGUAUAUAACUUGGGCUUUGUAGCUUUUAUUUAUUCAGAACGCAUACGGCAUGUUAAUGACUCUGAUGGUGUCCUCCUCUGGGCUGGAAUUCUCGGGUGCCAA` is recorded as 5.43.

Sample 3 — method: universal PBM; molecule type: double-stranded DNA, one strand shown; sample: in vitro; tested at: not given; reading: higher = stronger binding
Target: Sal-like protein 4, full length isoform B (SALL4, Homo sapiens, UniProt Q9UJQ4-2, residues 1-616)
Setting: 8-mer, flanks averaged, mean of replicates
Target sequence (chain): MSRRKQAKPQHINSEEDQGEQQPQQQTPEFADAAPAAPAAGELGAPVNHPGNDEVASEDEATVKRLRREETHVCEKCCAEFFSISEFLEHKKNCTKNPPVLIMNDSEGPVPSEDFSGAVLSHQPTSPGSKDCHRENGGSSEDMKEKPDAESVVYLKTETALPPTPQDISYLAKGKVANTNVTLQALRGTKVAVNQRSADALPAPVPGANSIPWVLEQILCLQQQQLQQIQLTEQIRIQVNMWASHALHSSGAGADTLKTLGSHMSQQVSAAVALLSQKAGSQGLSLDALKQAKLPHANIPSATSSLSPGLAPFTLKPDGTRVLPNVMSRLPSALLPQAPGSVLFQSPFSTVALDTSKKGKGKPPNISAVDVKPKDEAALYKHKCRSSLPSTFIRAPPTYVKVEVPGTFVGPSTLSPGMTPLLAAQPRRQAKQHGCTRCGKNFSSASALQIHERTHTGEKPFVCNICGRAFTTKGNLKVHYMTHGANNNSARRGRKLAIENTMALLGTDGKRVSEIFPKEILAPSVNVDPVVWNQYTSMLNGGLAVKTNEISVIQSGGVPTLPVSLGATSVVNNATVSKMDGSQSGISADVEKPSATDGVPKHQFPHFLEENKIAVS
The E-score of `GATCAGGC` is reported as -0.0876.
`CGCTGCAG` has an E-score of -0.269.
`ATTCATCA` gave an E-score of 0.267.
`GATGTCGA` gave an E-score of -0.00186.
The E-score of `AATTGACT` is reported as 0.112.
With `CACCGGAG` the E-score was -0.277.
The E-score of `TTCGTAAA` is reported as 0.298.
For `GGACGGAC`, the E-score was -0.274.
The E-score of `GTGATCAC` is reported as -0.0936.
The E-score of `GGGCGCAC` is reported as -0.296.
With `ACTGTAAG` the E-score was 0.146.
`CAAGCGTA` has an E-score of 0.0801.
`AACTTAGC` has an E-score of -0.00986.
With `ATAATTTA` the E-score was 0.424.
With `AACCGCGG` the E-score was -0.335.
The E-score of `GCGCTTAC` is reported as -0.245.
The E-score of `ACCGTCTA` is reported as -0.141.
The E-score of `GGCTTTGA` is reported as -0.00564.
For `GGACTGAA`, the E-score was -0.0153.
With `AATTACAC` the E-score was 0.2.
`CATGCTAC` has an E-score of -0.0922.
For `GCTATTCC`, the E-score was -0.146.
The E-score of `CGGGTATC` is reported as -0.0901.
The E-score of `GGCTGGGA` is reported as -0.227.
With `AGCAATGG` the E-score was -0.0601.

Sample 4 — method: protein binding microarray; molecule type: double-stranded DNA, one strand shown; sample: in vitro; tested at: not given; relative to: not given; reading: higher = stronger binding
Target: Histone acetyltransferase KAT6A, winged helix 2, GST fusion (KAT6A, Homo sapiens, UniProt Q92794, residues 85-181)
Setting: 8-mer, flanks averaged, mean of 2 arrays, mostly near background
Construct (chain): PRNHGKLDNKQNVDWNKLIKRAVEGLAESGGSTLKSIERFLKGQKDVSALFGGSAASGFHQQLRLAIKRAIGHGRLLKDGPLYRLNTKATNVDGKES
`AACTTAGA` gave an E-score of -0.0754.
`CAAGATTG` gave an E-score of -0.0604.
For `GCAGTCAC`, the E-score was -0.00301.
The E-score of `ACATGTTA` is reported as -0.144.
For `CTAAACGA`, the E-score was 0.0465.
For `GACGACAA`, the E-score was 0.0405.
`AACTAGAC` has an E-score of 0.000115.
`TCAAACAA` gave an E-score of 0.163.
The E-score of `ATGTTTCG` is reported as 0.0919.
`TCTGCTAA` has an E-score of 0.0894.
With `GCTGTTAA` the E-score was 0.14.
`CGCGAATA` has an E-score of 0.0675.
`CACACCTC` gave an E-score of -0.0712.
`ACTACAGG` has an E-score of -0.0269.
For `AACCTAGA`, the E-score was -0.069.
For `GAAGACGC`, the E-score was -0.0172.
With `AATAGTAG` the E-score was 0.0197.
For `GAAGACTC`, the E-score was -0.0657.
`ACAGCATC` gave an E-score of -0.0473.
`ATATGAAC` gave an E-score of -0.128.
For `ATGTTAGG`, the E-score was -0.179.
`AACTCCAA` gave an E-score of 0.0847.
With `ATAAGGTG` the E-score was 0.134.
The E-score of `CATTTTGG` is reported as 0.0167.
`CCGGTGCG` gave an E-score of 0.114.

A few entries again (sample 1):
`GACGAACTGGACTTTCGGGACGTGCTA` gave a log fluorescence of -0.167 z-score.
With `TTAGGACTGGACTTTCGCTTAGTGCTA` the log fluorescence was -0.185 z-score.
`TCATGTCTCTGTCCCTGACTGTGCTAG` has a log fluorescence of 0.186 z-score.
`TTAGGTATCGTTCTCCTTTAGTGCTAG` gave a log fluorescence of 2.26 z-score.
The log fluorescence of `TTAGATTTCGGGAATGGATTAGTGCTA` is reported as 0.619 z-score.
`TTAGATATCCGTTTCGATTAGTGCTAG` gave a log fluorescence of 3.55 z-score.
`TTAGGACTGTGGTTTCGGTTAGTGCTA` gave a log fluorescence of 7.57 z-score.
